Measurements from different studies.
Parts stem from different laboratories: compare values within a part only. Several values in a cell are separate wells, animals, samples, runs or records.
UniProt Q9HCP0, sequence (whole entry, looked up): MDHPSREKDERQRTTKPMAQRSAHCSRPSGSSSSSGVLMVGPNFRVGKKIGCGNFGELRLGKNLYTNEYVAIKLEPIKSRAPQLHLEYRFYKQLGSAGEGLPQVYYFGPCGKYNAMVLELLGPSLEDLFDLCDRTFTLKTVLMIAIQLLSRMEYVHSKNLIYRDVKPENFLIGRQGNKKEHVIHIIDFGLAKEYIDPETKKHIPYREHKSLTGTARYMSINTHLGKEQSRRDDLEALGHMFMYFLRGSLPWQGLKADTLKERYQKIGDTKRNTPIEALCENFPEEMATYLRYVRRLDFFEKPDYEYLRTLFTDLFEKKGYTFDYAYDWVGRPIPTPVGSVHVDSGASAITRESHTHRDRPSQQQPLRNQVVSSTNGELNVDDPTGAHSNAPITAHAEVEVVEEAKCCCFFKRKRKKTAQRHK
UniProt Q9BUB5, sequence (whole entry, looked up): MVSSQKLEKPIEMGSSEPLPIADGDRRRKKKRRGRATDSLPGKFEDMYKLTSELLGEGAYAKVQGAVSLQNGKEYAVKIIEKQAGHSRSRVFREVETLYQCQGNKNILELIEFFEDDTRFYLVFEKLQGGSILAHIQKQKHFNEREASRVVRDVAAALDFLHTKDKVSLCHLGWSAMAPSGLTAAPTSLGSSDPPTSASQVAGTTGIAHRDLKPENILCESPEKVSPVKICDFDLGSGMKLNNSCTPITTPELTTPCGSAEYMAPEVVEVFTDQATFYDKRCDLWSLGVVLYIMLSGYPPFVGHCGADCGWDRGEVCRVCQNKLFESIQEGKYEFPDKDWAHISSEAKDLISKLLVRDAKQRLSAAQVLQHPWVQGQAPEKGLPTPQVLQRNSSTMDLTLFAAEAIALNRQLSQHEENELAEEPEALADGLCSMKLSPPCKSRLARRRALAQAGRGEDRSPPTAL
UniProt Q9Y6E0, sequence (whole entry, looked up): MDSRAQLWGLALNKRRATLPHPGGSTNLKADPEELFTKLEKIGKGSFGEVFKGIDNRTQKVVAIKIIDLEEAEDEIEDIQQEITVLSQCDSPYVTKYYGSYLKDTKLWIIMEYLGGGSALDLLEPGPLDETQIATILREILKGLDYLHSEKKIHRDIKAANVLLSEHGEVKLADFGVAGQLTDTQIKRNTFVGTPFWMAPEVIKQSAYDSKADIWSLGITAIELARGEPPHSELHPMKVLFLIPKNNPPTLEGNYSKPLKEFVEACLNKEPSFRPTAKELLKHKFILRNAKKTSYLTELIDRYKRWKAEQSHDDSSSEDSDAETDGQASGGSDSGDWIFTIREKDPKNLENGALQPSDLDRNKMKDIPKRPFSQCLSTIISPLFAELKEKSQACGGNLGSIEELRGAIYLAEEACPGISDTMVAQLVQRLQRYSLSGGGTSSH
UniProt Q9BZL6, sequence (whole entry, looked up): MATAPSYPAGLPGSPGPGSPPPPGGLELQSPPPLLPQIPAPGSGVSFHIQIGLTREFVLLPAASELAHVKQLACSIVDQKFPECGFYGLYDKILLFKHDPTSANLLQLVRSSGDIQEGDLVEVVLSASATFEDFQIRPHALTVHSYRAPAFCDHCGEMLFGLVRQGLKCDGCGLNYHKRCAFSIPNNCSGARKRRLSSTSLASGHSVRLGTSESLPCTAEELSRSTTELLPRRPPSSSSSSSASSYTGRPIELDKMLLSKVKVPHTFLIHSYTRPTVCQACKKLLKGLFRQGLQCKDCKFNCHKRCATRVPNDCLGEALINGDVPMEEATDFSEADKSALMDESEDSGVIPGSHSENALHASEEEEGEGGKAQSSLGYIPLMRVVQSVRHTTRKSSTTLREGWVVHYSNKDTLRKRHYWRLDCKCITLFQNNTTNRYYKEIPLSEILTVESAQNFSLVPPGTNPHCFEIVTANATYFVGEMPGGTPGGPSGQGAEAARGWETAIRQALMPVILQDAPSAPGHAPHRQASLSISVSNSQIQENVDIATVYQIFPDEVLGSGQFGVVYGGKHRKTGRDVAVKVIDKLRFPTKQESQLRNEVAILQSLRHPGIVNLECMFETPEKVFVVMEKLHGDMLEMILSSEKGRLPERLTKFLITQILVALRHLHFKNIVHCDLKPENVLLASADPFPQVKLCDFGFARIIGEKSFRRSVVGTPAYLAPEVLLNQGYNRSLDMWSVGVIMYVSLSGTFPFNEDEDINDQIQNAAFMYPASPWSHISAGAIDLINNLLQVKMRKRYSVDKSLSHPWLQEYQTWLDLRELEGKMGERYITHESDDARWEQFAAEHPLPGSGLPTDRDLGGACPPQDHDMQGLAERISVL
UniProt Q8IW41, sequence (whole entry, looked up): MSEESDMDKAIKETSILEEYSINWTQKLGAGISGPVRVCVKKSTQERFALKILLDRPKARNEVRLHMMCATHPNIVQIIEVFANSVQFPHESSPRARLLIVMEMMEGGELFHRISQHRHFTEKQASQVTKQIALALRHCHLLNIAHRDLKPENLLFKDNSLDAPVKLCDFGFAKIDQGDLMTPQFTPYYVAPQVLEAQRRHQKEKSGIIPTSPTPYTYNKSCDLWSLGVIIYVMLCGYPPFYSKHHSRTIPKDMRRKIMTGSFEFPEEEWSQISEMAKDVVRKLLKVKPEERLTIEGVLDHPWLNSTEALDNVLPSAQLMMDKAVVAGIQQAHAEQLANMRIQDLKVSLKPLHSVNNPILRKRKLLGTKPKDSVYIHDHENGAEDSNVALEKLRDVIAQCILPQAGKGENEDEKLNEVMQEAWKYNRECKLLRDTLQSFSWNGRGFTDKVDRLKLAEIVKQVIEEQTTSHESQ
UniProt P45983, sequence (whole entry, looked up): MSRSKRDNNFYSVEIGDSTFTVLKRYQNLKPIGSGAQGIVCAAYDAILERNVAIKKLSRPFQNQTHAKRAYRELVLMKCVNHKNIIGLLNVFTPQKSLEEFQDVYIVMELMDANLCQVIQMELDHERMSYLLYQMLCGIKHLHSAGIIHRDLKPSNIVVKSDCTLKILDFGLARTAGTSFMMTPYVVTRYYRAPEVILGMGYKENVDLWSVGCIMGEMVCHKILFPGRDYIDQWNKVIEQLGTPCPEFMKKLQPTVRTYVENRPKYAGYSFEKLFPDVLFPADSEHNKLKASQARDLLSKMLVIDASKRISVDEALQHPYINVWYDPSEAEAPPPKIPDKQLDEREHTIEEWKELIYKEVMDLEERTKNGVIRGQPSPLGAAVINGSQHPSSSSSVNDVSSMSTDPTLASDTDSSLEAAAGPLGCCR
UniProt Q96KB5, sequence (whole entry, looked up): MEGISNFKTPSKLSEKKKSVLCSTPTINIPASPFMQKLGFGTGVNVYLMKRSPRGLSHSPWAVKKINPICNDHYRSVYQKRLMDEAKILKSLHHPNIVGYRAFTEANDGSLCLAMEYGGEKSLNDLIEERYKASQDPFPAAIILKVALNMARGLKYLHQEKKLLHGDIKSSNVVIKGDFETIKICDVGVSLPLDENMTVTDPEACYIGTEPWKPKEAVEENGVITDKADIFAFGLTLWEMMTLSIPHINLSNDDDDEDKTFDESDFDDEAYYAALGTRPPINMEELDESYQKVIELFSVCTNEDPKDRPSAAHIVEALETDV
UniProt Q13555, sequence (whole entry, looked up): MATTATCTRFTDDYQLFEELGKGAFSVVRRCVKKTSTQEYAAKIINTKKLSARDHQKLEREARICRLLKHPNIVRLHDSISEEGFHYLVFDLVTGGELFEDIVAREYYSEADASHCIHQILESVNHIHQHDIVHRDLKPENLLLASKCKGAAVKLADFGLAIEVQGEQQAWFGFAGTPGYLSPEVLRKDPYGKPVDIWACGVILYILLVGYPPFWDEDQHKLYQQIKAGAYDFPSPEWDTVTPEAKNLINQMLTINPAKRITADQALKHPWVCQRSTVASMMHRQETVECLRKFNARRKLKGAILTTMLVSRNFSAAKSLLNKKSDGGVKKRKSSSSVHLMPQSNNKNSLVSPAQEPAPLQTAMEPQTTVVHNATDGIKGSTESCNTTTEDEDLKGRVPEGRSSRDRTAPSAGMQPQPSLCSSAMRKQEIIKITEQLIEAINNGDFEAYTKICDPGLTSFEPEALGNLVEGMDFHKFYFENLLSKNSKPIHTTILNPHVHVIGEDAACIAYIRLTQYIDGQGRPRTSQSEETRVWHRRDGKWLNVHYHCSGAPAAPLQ

Set 1 — effect on: enzyme activity; mode: inhibitor; concentration: 0.5 µM; baseline: control
Structure (SMILES): COC[C@H]1OC(=O)c2coc3c2[C@@]1(C)C1=C(C3=O)[C@@H]2CCC(=O)[C@@]2(C)C[C@H]1OC(C)=O
NUAK2 (Homo sapiens, UniProt Q9H093) — remaining activity: 131%.
For MAPKAPK5 (Homo sapiens, UniProt Q8IW41): remaining activity read 88.3%.
It gave 104% for remaining activity (PBK (Homo sapiens, UniProt Q96KB5)).
The remaining activity was 93.1% (STK24 (Homo sapiens, UniProt Q9Y6E0)).
The remaining activity was 92.1% (TYK2 (Homo sapiens, UniProt P29597)).
It gave 119% for remaining activity (IRAK1 (Homo sapiens, UniProt P51617)).
For MYLK2 (Homo sapiens, UniProt Q9H1R3): remaining activity read 95.9%.
The remaining activity was 95.8% (STK26 (Homo sapiens, UniProt Q9P289)).
It gave 108% for remaining activity (NEK7 (Homo sapiens, UniProt Q8TDX7)).
The remaining activity was 97.1% (MAP3K11 (Homo sapiens, UniProt Q16584)).
It gave 96.4% for remaining activity (EPHA8 (Homo sapiens, UniProt P29322)).
CAMK2G (Homo sapiens, UniProt Q13555) — remaining activity: 86.4%.
It gave 98.7% for remaining activity (MAPK8 (Homo sapiens, UniProt P45983)).
It gave 94.6% for remaining activity (CSNK1G1 (Homo sapiens, UniProt Q9HCP0)).
EPHA1 (Homo sapiens, UniProt P21709) — remaining activity: 98.3%.
PRKD2 (Homo sapiens, UniProt Q9BZL6) — remaining activity: 96.6%.
For Protein kinase C beta type, isoform beta-II (PRKCB, Homo sapiens, UniProt P05771): remaining activity read 117%.
It gave 87.5% for remaining activity (DAPK3 (Homo sapiens, UniProt O43293)).
For ERBB4 (Homo sapiens, UniProt Q15303): remaining activity read 83.9%.
It gave 107% for remaining activity (MKNK1 (Homo sapiens, UniProt Q9BUB5)).

Set 2 — effect on: enzyme activity; mode: inhibitor; concentration: 10 µM
Target: Calcium/calmodulin-dependent protein kinase type II subunit alpha (CAMK2A, Homo sapiens, UniProt Q9UQM7)
UniProt Q9UQM7, sequence (whole entry, looked up): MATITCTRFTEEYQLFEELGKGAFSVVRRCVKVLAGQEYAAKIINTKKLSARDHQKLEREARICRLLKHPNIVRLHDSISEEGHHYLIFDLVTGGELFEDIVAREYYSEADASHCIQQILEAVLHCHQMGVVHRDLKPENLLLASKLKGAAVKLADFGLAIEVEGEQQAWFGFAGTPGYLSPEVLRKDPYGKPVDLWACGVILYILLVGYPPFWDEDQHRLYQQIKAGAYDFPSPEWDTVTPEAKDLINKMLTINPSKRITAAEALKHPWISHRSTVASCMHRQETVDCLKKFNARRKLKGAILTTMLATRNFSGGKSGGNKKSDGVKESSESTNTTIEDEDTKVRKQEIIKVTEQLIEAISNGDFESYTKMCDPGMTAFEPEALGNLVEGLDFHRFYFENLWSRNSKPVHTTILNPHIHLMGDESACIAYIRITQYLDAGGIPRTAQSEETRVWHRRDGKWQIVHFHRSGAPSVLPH
For `COc1cc(OC)c2c(=O)cc(-c3ccc(OC)c(OC)c3)oc2c1`, the inhibition was 3%.
`CN1[C@@H]2CC[C@H]1CC(O)C2` (stereo partly shown) has an inhibition of 24%.
The inhibition of `C[C@H](CCC(=O)O)C[C@H](C)C[C@H](C)C(=O)/C=C(\O)[C@H](C)C[C@H](C)C/C=C/[C@@H](C)[C@@H](O)[C@@H](C)[C@@H](O)C[C@@H]1CC[C@@](C)([C@H]2CC[C@@](C)([C@@H](C)O)O2)O1` is reported as -51%.
For `CC(C)=CCC[C@](C)(O)[C@H]1CC[C@]2(C)[C@@H]1[C@H](O)C[C@@H]1[C@@]3(C)CC[C@H](O[C@@H]4O[C@H](CO)[C@@H](O)[C@H](O)[C@H]4O)C(C)(C)[C@@H]3CC[C@]12C`, the inhibition was -47%.
The inhibition of `C=C1[C@@H](C)[C@H]2[C@H](Cc3ccccc3)NC(=O)[C@]23OC(=O)/C=C/[C@H](O)CCC[C@@H](C)C/C=C/[C@H]3[C@@H]1O` is reported as -29%.
With `NC(=O)NCCCC[C@H](N)C(=O)O` the inhibition was -15%.
With `COc1ccc2c3c1O[C@H]1C[C@@H](O)C=C[C@@]31CC[N@@+](C)([O-])C2` the inhibition was 4%.
With `CC[C@H]1CN2CC[C@H]1C[C@@H]2[C@@H](O)c1ccnc2ccc(OC)cc12` the inhibition was 4%.
With `CCC1(O)C(=O)OCc2c1cc1n(c2=O)Cc2cc3cc(O)ccc3nc2-1` (racemic) the inhibition was -13%.

Set 3 — effect on: RNA clamping; method: fluorescence polarization; concentration: concentration not given; with: FAM-labelled poly r(AG)8 RNA; direction: higher = more clamping
Target: Eukaryotic initiation factor 4A-I (EIF4A1, Homo sapiens, UniProt P60842)
UniProt P60842, sequence (whole entry, looked up): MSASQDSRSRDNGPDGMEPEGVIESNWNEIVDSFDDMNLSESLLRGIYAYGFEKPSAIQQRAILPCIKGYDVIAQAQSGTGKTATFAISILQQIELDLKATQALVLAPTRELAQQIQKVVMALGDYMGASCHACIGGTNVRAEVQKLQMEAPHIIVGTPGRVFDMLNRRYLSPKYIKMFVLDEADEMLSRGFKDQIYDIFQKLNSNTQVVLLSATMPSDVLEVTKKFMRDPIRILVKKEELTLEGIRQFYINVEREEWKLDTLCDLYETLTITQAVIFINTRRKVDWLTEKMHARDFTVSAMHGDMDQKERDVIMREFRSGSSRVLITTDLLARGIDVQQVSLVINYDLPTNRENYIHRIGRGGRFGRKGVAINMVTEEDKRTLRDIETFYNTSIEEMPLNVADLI
`CONC(=O)[C@H]1[C@@H](O)[C@@]2(O)c3c(OC)cc(OC)cc3O[C@@]2(c2ccc(Br)cc2)[C@@H]1c1ccccc1`: “fluorescence polarization change” 70.8 mP and 74.7 mP.
`COc1ccc(-c2nc3c(c(=O)[nH]2)[C@@H](c2ccccc2)[C@]2(c4ccc(OC)cc4)Oc4cc(OC)cc(OC)c4[C@]32O)cc1`: “fluorescence polarization change” 14.6 mP and 18.6 mP.
For `COC(=O)[C@@H]1[C@@H](c2ccccc2)[C@]2(c3ccccc3)Oc3ccccc3[C@@]1(O)[C@H]2O`, “fluorescence polarization change” read 7.4 mP.
`COC(=O)[C@H]1[C@@H](c2ccccc2)C2(c3ccc(OC)cc3)Oc3cc(OC)cc(OC)c3[C@@]1(O)C2=O` — result for “fluorescence polarization change”: 4.7 mP.
`COc1ccc([C@@]23Oc4cc(OC)cc(OC)c4[C@]2(O)c2nc4n(c(=O)c2[C@H]3c2ccccc2)CCCC4)cc1` — result for “fluorescence polarization change”: 51.1 mP.
Under “fluorescence polarization change”, `CCCCC1=N[C@@]2(O)[C@H](C(=O)OC)[C@@H](c3ccccc3)[C@]3(c4ccc(OC)cc4)Oc4cc(OC)cc(OC)c4[C@]23N1` is recorded as 67.9 mP.
For `COc1ccc([C@@]23Oc4cc(OC)cc(OC)c4[C@]2(O)c2nc4n(c(=O)c2[C@H]3c2ccccc2)CCC4)cc1`, “fluorescence polarization change” read 56.6 mP and 78 mP.
Under “fluorescence polarization change”, `COc1ccc([C@@]23Oc4cc(OC)cc(OC)c4[C@]2(O)c2nc(-c4ccccc4)[nH]c(=O)c2[C@@H]3c2ccccc2)cc1` is recorded as 10.3 mP.
For `COC(=O)[C@H]1[C@@H](O)[C@@]2(O)c3c(OC)cc(OC)cc3O[C@@]2(c2ccc(OC)cc2)[C@@H]1c1ccccc1`, “fluorescence polarization change” read 62.2 mP and 32 mP.

Further values, each from its own experiment
`C[C@H](c1ccnc(Nc2nc3ccc(-c4cc(N(C)C)ncn4)cc3[nH]2)c1)N1CCN(C(=O)CC(F)(F)F)CC1` gave a remaining binding of 100% (CRK2 (Plasmodium falciparum, UniProt P61075); cell-free assay, competition with immobilised ligand; 0.1 µM).
`COc1cc(=O)n(-c2ccccc2)cc1C(=O)N1CCC2(CC1)OCCO2` gave a remaining compound of 91.7% (human, microsomes or S9; 2 µM, 0.5 h).
With `CC1=C(C#N)[C@@H](c2ccc3[nH]nc(C)c3c2)C(C#N)=C(c2ccc(Cl)cc2)N1` the remaining binding was 100% (pknB (Mycobacterium tuberculosis, UniProt P9WI81); cell-free assay, competition with immobilised ligand; 1 µM).
For `CCS(=O)(=O)c1cc2cc(C[C@@](O)(CC(C)(C)c3ccc(F)cc3C(N)=O)C(F)(F)F)[nH]c2cn1`, the remaining binding was 99% (CDPK1 (Plasmodium falciparum, UniProt P62344); cell-free assay, competition with immobilised ligand; 1 µM).
`COc1cccc(NC(=O)c2nc3scc(CN(C)Cc4ccccc4)c3c(=O)[nH]2)c1` has a Ki of 831 nM (SLC6A4 (Homo sapiens, UniProt P31645); binding, radioligand binding).

Repeated from above (set 1):
The remaining activity was 95.8% (STK26 (Homo sapiens, UniProt Q9P289)).
It gave 108% for remaining activity (NEK7 (Homo sapiens, UniProt Q8TDX7)).
The remaining activity was 97.1% (MAP3K11 (Homo sapiens, UniProt Q16584)).
It gave 96.4% for remaining activity (EPHA8 (Homo sapiens, UniProt P29322)).
CAMK2G (Homo sapiens, UniProt Q13555) — remaining activity: 86.4%.
It gave 98.7% for remaining activity (MAPK8 (Homo sapiens, UniProt P45983)).
